Measurements collected from several papers.
Each numbered part is a random draw from the data of one study; scales do not carry over between parts.

Set 1
Target: RING finger protein unkempt homolog, zinc fingers 1-6, GST-SBP tag (UNK, Homo sapiens, UniProt Q9C0B0, residues 30-357)
Sequence of UniProt Q9C0B0 (30-357, looked up): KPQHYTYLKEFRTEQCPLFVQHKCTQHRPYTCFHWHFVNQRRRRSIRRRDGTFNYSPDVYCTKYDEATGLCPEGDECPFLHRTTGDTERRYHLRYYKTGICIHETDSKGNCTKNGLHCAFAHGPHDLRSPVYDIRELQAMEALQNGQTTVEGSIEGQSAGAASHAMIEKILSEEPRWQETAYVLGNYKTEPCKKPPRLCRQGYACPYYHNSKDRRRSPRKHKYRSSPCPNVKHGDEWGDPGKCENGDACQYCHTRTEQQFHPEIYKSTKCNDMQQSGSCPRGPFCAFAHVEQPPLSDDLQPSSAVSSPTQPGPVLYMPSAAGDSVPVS
Method: RNA Bind-n-Seq
Molecule type: RNA
Matrix: in vitro
Tested at: not given
Notes: RNA with constant flanks, ends assumed
Relative to: input RNA pool
Reading: higher = stronger binding
For `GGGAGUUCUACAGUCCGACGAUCGCUCUGGGCUUUUCUGAUGUGGAUCACACCUAUGCUCAAAGAACUCAGCUCUUUGACACCUCCGUAAAUUUCUUUCCUGACAGCAUGACUCCUCCUAAAGGCAACCUGGUAGACCUCAUCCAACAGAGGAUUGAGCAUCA`, the bound/input enrichment was 0.405 ratio.
`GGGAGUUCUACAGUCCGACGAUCUCAGAACUCAUCUCCACUCGUUUCACAGGCGCCACUGGCAGAGCAUUUCUUUUUAACAAGGCCGUUAACCUGCAGUACAGUGAAGUUCAAGAUCGGGUCAUGCUCACUGGCCGCCACAUGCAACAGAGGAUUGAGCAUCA` gave a bound/input enrichment of 0.121 ratio.
For `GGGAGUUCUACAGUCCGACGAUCCUUUCAGUAAGAACGACCCCCUAAAAGAAAACAGGAGGAGAUGCAGCGCUUUAGGCCGCCUCCGCCAGCAGCUUGUGUCCUACUCUGGAAGUUGUAACCUACAGUUUUUCUCACCUGUAACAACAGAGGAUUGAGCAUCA`, the bound/input enrichment was 0.749 ratio.
With `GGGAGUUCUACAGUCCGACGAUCCAGGAAACCCAUAUUGAUUUUGUAAUUAAAUGUCAAGCCUGUGGAUUGUUUUGAGCUUGGCCGUUGAUGAGCAUUUCCGUACAGAGGCCUCACCUUGAGCACAGCACUGUCAGGAGGGCGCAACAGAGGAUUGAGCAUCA` the bound/input enrichment was 0.392 ratio.
With `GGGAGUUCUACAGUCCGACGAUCAUUGUAAAUGAUUUGUAUCGUAUGAUUAAGGAUCUAAGGCACAAUAUUUGUCACUGUUCUAUCCGACUUUUUACUGAAAAUGAAUAAUGGUGUAAUGGUUCUCCUGGGGCUGUCACAUUUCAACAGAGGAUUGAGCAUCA` the bound/input enrichment was 0.14 ratio.
For `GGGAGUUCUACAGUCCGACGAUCAUACAAGUGACUACGAAAGACAUCCUAGUUACAGAGAAAGGAAAUACUGUGUUAGAAUUUUCCGCCGGACUCUUUAAACCUUUUGUGGAAAGCUAUCAGAUAAUUUGCAAGUACCUUUUGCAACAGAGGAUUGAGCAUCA`, the bound/input enrichment was 0.241 ratio.
`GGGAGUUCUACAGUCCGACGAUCAUGAGAAACAGUAUCUUAGCCCAAGUUCUGGAUCAGUCGGCCCGGGCCAGGUUAAGUAACUCCGCACUUGUAAAGCCUGAAAAAACUAAAGCAGUAGAGAAUUACCUUAUACAGAUGGCACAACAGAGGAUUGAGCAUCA` has a bound/input enrichment of 0.533 ratio.
The bound/input enrichment of `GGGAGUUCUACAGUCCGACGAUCGACAUUUUGGGUGUUAAGAAGGAAAUGAUCCGGCUAGAUGAAGUUCCCAAUCUGAGUUCCUCCGUAUCCAAUUUCGAUCAGCAGCAGCUUGCUAACUUCUGCAGGAUCCUGGCUGUCACCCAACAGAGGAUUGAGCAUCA` is reported as 0.158 ratio.

Set 2
Target: Ras GTPase-activating protein-binding protein 1, full length (G3BP1, Homo sapiens, UniProt Q13283)
Sequence of UniProt Q13283 (whole entry, looked up): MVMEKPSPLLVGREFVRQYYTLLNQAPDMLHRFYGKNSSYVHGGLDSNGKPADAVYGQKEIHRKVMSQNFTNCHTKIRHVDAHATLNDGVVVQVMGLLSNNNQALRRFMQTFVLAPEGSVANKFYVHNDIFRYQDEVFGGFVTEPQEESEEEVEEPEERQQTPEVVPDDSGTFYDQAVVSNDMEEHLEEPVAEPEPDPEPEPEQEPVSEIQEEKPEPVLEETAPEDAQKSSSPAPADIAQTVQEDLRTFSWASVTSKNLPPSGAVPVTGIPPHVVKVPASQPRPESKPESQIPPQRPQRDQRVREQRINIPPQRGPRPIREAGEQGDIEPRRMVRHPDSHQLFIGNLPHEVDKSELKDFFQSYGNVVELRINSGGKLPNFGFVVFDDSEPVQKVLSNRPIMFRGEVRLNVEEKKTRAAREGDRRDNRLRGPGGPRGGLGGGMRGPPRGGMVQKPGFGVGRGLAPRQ
Method: RNA Bind-n-Seq
Molecule type: RNA
Matrix: in vitro
Tested at: 200 nM
Notes: whole 134-nt RNA, ends assumed
With: 150 mM LiCl
Relative to: input library
Reading: higher = stronger binding
All molecules: 7-deaza-guanosine replaces G
`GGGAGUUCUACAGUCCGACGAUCCAAGUCCUGUGCUACACAUCGUAUGUACCGAAUCGGGAAAGGGGAAAGGAAAGGGGAAAGUAUUAUGUUACGCCGUUCGGAUCUGCACUUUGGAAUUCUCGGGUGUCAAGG` gave a log2 enrichment of -0.165.
`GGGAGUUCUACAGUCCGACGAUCCAAACUUAAAGUCUCCCUUGCUCGGAAGAAGCCUCCAAUGAACAGUAUGCGGGGUGGUCUGCCACCCCGUGAGGGCAGAGGCAUGCCACCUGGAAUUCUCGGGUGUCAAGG` gave a log2 enrichment of 1.03.
For `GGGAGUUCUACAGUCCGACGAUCCCUCAAGUCCUGUGCUACACAUCGUAUGUACCGAAUCGGGGAGGAGGAGGGGAAAGUAUUAUGUUACGCCGUUCGGAUCUGCACUUCCAGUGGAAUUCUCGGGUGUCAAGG`, the log2 enrichment was 0.705.
`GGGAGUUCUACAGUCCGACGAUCUGGCCCUGGUGGCAUGCGGGGAGGAAGAGGUGGCCUCAUGGAUCGAGGUGGUCCCGGUGGAAUGUUCAGAGGUGGCCGUGGUGGAGACAGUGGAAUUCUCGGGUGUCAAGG` has a log2 enrichment of 0.325.
The log2 enrichment of `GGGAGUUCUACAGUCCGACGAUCUCCUGUGCUACACAUCGUAUGUACCGAAUCGGGGCCCCCGGCCCCCGGGGCCCCCGGGGAAAGUAUUAUGUUACGCCGUUCGGAUCUGCAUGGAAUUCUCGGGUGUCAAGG` is reported as -1.62.
`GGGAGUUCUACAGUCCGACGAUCAGUCCUGUGCUACACAUCGUAUGUACCGAAUCGGAAAAAAGGAAAAAAGGAAAAAAGGAAAGUAUUAUGUUACGCCGUUCGGAUCUGCACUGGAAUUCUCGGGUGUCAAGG` has a log2 enrichment of -1.15.
The log2 enrichment of `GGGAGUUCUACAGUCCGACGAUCGUCCUGUGCUACACAUCGUAUGUACCGAAUCGGGGUUUGGGGUGGGGUUUUUUUGGGGAAAGUAUUAUGUUACGCCGUUCGGAUCUGCACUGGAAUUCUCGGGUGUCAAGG` is reported as 0.23.
`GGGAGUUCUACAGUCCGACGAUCACCAUGCAGGUGGGCAUCUUUGGGAAGUGGGGCAAGGGGGGGAUAGGGAGGGGGGUAACACUUUGGGAACAGGUAAACCCAGGUCGUUUCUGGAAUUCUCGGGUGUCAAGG` has a log2 enrichment of 0.00623.

Set 3
Target: RNA binding protein fox-1 homolog 2, RRM domain, GST-SBP tag (RBFOX2, Homo sapiens, UniProt O43251-10, residues 100-194)
Method: RNA Bind-n-Seq
Molecule type: RNA
Matrix: in vitro
Tested at: 365 nM
Notes: natural RNA segment, single round, ends assumed
Relative to: no-protein control
Reading: higher = stronger binding
Construct (chain): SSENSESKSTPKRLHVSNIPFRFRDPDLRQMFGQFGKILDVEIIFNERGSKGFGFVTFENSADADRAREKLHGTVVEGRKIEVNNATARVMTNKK
Under “RBNS enrichment (R)”, `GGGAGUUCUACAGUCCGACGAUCUCCCAGUUCUCUGACUCUCGCUCUAGAGUUGAGAACAGGCAGGGCCUGGUGUGCUCUGGGAUGUGCAAGGUGGAGCAGGCCUGUCAGUCAGCCUGCUGCUGCAUCUGUUCUGGAAUUCUCGGGUGCCAA` is recorded as 0.438.
For `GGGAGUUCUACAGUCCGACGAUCCAUGCCGACUUGAUCUUUGAGCCCACUCGUCUGCAUUUGUUCUUUGGGAUUAUAUAAUCUAGGGCCAAGAAGUUUACUGCCUGUGGAGCGGGCAGGAACUCUAGCCACCUUGGAAUUCUCGGGUGCCAA`, “RBNS enrichment (R)” read 0.754.
`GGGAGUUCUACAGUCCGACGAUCAAGGCGUCAACAGGGGGCUGGAGAGAUGGCUCAGGAGUUAAGAGCCCUGACUGCUCUUCCACAGGUCCUGAGUUCAAUUCCCAGCAACCACAUGGUGGUUCCCAACCAUCUGGAAUUCUCGGGUGCCAA` — result for “RBNS enrichment (R)”: 0.301.
For `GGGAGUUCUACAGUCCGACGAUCCAUAUCAAAGUAUAAUUGAUGGGGGCCUUGUUUUGUUUUGUUUUGGUUUUUGGAGACAGGGUCUCACUGUGUAGUCCUAGCUGGCCUGGAACUCACUAUGUAGAUCAGGCUGGAAUUCUCGGGUGCCAA`, “RBNS enrichment (R)” read 1.91.
For `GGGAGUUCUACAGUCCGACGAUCGAAUGUAUGCAAUGUGUAAAAAAUGCAAAUGGCUGUAUGCAUUGAAUAAAAAUAAUAUACAAUUAGAGUAAGAAGUUUGUUUUUUCCCUUUCCUAUUCUCUUCCUUUCUCUGGAAUUCUCGGGUGCCAA`, “RBNS enrichment (R)” read 1.12.
Under “RBNS enrichment (R)”, `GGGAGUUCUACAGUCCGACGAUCCUGACUUACGAAAGUUGAAUUGGGUGAGGCGGGCAAAUCACCUGAGGUCAGCAGUUUGAGACUAGCCUGGCAAACAUGAUGAAACCCUGUCUCUACUAAAAAUACAAAAAUGGAAUUCUCGGGUGCCAA` is recorded as 0.345.
`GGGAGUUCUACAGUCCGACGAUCAGGCUUCUGAGGUACGGGGUCUUGCUGUGUGCUCUCUCUCCGUGCUGCCGUUAAGCCAAAACAAAAGCUGUGAACAUAGGUGCUUGAGAGAAUGCGUGUUGACAGGAAAGUGGAAUUCUCGGGUGCCAA`: “RBNS enrichment (R)” 1.76.
Under “RBNS enrichment (R)”, `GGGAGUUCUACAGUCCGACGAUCCCCCUGCAAGAAACAAGGCUGCUGGAGUAAGUGUCCCAGGAGAGUCUGACCUCAUCACCAGAGCUGCUGGUGGGGCCUCAUUCCUUGCAGCAGAUGGGUGAGCUGCACCAUGGAAUUCUCGGGUGCCAA` is recorded as 1.02.
`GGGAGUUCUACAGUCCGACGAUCGUUUUCCACAAGACUGAACAACGUGUAUUUACACGAGGGUAGACGGCAGAUGCCUGACAGAGAGUGGGUUGGCAGACAACACACUAGCAUUUUCACGGGUGUGGGCACAUUGGAAUUCUCGGGUGCCAA`: “RBNS enrichment (R)” 0.736.

Set 4
Target: GDNF-inducible zinc finger protein 1, full length (GZF1, Homo sapiens, UniProt Q9H116, residues 1-711)
Method: protein-binding microarray
Molecule type: hairpin DNA
Matrix: in vitro
Tested at: not given
Notes: whole hairpin DNA, median over replicate spots
Relative to: not given
Reading: higher = stronger binding
Construct (chain): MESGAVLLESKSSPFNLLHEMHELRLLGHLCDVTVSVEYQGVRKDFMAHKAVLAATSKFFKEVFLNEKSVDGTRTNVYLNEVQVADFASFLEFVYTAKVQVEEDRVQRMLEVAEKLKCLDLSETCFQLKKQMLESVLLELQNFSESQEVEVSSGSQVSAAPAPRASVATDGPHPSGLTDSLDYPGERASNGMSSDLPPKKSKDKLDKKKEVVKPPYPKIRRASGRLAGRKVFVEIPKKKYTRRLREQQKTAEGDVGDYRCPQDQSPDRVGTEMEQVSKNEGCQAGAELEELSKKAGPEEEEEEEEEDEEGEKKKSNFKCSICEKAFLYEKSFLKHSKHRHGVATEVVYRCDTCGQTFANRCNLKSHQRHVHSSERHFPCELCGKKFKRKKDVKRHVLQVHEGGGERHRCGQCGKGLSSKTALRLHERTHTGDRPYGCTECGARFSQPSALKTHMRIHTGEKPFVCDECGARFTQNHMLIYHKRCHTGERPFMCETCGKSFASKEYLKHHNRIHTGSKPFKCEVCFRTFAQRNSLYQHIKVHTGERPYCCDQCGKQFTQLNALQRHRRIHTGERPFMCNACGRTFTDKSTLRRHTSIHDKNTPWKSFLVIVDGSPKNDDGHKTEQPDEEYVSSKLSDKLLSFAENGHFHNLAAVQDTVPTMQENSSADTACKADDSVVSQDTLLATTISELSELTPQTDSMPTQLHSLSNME
The median fluorescence of `GAGGCCATTACGGGAATGCCTCCTGGCATTCCCGTAATGGCCTCACACTC (5mC at 31)` is reported as 490 a.u.
For `GAGGCCGTTACGGTAATGCCTCCTGGCATTACCGTAACGGCCTCACACTC`, the median fluorescence was 743 a.u.
With `GAGGCCATTACGGCGATGCCTCCTGGCATCGCCGTAATGGCCTCACACTC` the median fluorescence was 582 a.u.
With `GAGGCCATTACGCGAATGCCTCCTGGCATTCGCGTAATGGCCTCACACTC` the median fluorescence was 533 a.u.
`GAGGCCATTACGGTCGTGCCTCCTGGCACGACCGTAATGGCCTCACACTC (5mC at 29)` gave a median fluorescence of 578 a.u.
`GAGGCCATTACGGTAATGCCTCCTGGCATTACCGTAATGGCCTCACACTC (5mC at 11)` has a median fluorescence of 625 a.u.
`GAGGCCATTACGGTACGGCCTCCTGGCCGTACCGTAATGGCCTCACACTC (5mC at 16 28)` gave a median fluorescence of 658 a.u.
`GAGGCCATTACGGCAATGCCTCCTGGCATTGCCGTAATGGCCTCACACTC` has a median fluorescence of 530 a.u.
`GAGGCCATCGCGGTAATGCCTCCTGGCATTACCGCGATGGCCTCACACTC` has a median fluorescence of 746 a.u.
`GAGGCCATTACCGTAATGCCTCCTGGCATTACGGTAATGGCCTCACACTC` has a median fluorescence of 788 a.u.
The median fluorescence of `GAGGCCAGTACGGTAATGCCTCCTGGCATTACCGTACTGGCCTCACACTC` is reported as 729 a.u.
`GAGGCCATTACGCGAATGCCTCCTGGCATTCGCGTAATGGCCTCACACTC (5mC at 13 31)` gave a median fluorescence of 508 a.u.
`GAGGCCATTACCGTAATGCCTCCTGGCATTACGGTAATGGCCTCACACTC (5mC at 12 32)` gave a median fluorescence of 528 a.u.
The median fluorescence of `GAGGCCATTACGGTCGTGCCTCCTGGCACGACCGTAATGGCCTCACACTC (5mC at 15)` is reported as 571 a.u.

Excerpt of the above (set 2):
`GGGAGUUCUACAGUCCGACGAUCAGUCCUGUGCUACACAUCGUAUGUACCGAAUCGGAAAAAAGGAAAAAAGGAAAAAAGGAAAGUAUUAUGUUACGCCGUUCGGAUCUGCACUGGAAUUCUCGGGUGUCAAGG` has a log2 enrichment of -1.15.
The log2 enrichment of `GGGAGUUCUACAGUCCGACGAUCGUCCUGUGCUACACAUCGUAUGUACCGAAUCGGGGUUUGGGGUGGGGUUUUUUUGGGGAAAGUAUUAUGUUACGCCGUUCGGAUCUGCACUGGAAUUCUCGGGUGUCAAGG` is reported as 0.23.
